Published values of several laboratories.
A part holds a random share of what one study measured. Changes are numbered by the printed parent chain.

Sample 1
Target: Fragile X messenger ribonucleoprotein 1, C-terminal low-complexity region (Fmr1, Mus musculus, UniProt P35922)
Technique: RNA Bind-n-Seq
Form: RNA
Medium: in vitro
Tested at: 200 nM
Notes: whole 134-nt RNA, ends assumed
Together with: 150 mM LiCl
Baseline: input library
Reading: higher = stronger binding
Each molecule: 7-deaza-guanosine replaces G
Strand	log2 enrichment
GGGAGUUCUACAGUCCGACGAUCAAGUCCUGUGCUACACAUCGUAUGUACCGAAUCGGGGAAAAAGGGGAGGGGUGGGGAAAGUAUUAUGUUACGCCGUUCGGAUCUGCACUUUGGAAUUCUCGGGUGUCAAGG	-0.156
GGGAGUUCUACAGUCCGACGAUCUCAAGUCCUGUGCUACACAUCGUAUGUACCGAAUCGGGGUUGGGGUUGGGUUGGAAAGUAUUAUGUUACGCCGUUCGGAUCUGCACUUCCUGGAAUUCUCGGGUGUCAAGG	-0.789
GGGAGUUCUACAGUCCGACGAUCUGGCCCUGGUGGAAUGCGGGGAGGAAGAGGUGGCCUCAUGGAUCGUGGUGGUCCCGGUGGAAUGUUCAGAGGUGGCCGUGGUGGAGACAGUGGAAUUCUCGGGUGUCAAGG	0.687
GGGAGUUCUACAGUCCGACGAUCCCUCAAGUCCUGUGCUACACAUCGUAUGUACCGAAUCGGUGGAAAGGUUUGGAAAGUAUUAUGUUACGCCGUUCGGAUCUGCACUUCCAGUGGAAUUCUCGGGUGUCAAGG	-0.734
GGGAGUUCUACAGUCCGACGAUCCACAGACAACACGCACCCACACAGACACAGAGGGAAGGGGUUGGGAUGGGGACAGGGUGCACAGCAGGGCGGGGUAAGACCCCAGCCCCUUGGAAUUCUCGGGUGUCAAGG	1.82
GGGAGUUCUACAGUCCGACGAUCCUGUGCUACACAUCGUAUGUACCGAAUCGGGGUUUUUUUGGGGAAAAAGGGGUUUUUGGGGAAAGUAUUAUGUUACGCCGUUCGGAUCUGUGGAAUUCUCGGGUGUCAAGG	-1.93
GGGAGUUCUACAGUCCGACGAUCUCAAGUCCUGUGCUACACAUCGUAUGUACCGAAUCGGAGGUUUUUUUGGUUUGGAAAGUAUUAUGUUACGCCGUUCGGAUCUGCACUUCCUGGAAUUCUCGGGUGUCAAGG	-2.27
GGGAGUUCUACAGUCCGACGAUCCCUGUGCUACACAUCGUAUGUACCGAAUCGGGUUUUUGGGAAAAAAAGGGAAAAAAAGGGAAAGUAUUAUGUUACGCCGUUCGGAUCUGCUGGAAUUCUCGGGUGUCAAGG	-1.87

Sample 2
Target: CCNA1, cyclin fold, Cln2 fusion (human)
Technique: yeast growth competition, sequencing
Medium: yeast
Notes: weak parent motif
Baseline: not given
Reading: higher = stronger binding
Starting sequence: RB1 docking peptide (human); PKPLKKLRFDIEG
Change	normalised enrichment score
PKPLKKLRFDILG [E12L]	0.266
PKPLKKLRFDQEG [I11Q]	0.176
PQPLKKLRFDIEG [K2Q]	0.183
PKPLKKLRFDIEF [G13F]	0.293
PKPLKKYRFDIEG [L7Y]	-0.06
PKPLKKLRFDIEW [G13W]	0.232
PKPLKKLFFDIEG [R8F]	0.378
PKPLKFLRFDIEG [K6F]	0.284
WKPLKKLRFDIEG [P1W]	0.296
PKPLKKLRFDLEG [I11L]	0.668
PWPLKKLRFDIEG [K2W]	-0.0476
PKPLQKLRFDIEG [K5Q]	0.416
PKPLRKLRLDIEG [K5R F9L]	-0.052
PKPLKKLRFDIEP [G13P]	0.149
PKPLKKLRFDICG [E12C]	0.183
PKPIKKLRFDIEG [L4I]	0.447
PKPLKKLRGDIEG [F9G]	0.365
PKPLKKLDFDIEG [R8D]	0.0136
PYPLKKLRFDIEG [K2Y]	0.457

Sample 3
Target: Histone acetyltransferase KAT6A, winged helix 1, GST fusion (KAT6A, Homo sapiens, UniProt Q92794, residues 1-85)
Technique: protein binding microarray
Form: double-stranded DNA, one strand shown
Medium: in vitro
Tested at: not given
Notes: 8-mer, flanks averaged, mean of 2 arrays, mostly near background
Baseline: not given
Reading: higher = stronger binding
Residues (chain): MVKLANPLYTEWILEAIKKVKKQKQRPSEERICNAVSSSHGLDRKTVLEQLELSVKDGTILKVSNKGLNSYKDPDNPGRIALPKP
Strand	E-score
CGCATTCA	0.102
ACGATGGG	-0.157
CCGACGTA	0.267
ACACAGCG	0.275
CGCTGGAA	0.246
CAAGACCC	-0.168
GATGGAAA	-0.0658
GAAACCTA	-0.0417
ACATATCC	0.0671
ATGGCGGA	0.124
CGCTTACA	0.0249
TAGGTACA	-0.101
CTATGAGA	-0.138
ACCATTTC	-0.118
GGTTCCGA	0.0305
CATTACTC	-0.0543

Sample 4
Target: PABPC1L2, full length, GST fusion (mouse, UniProt A0ABA7IW68)
Technique: RNAcompete
Form: RNA
Medium: in vitro
Tested at: 20 nM
Notes: 7-mer, probes averaged, single round
Baseline: mean of 7-mers
Reading: higher = stronger binding
Construct (chain): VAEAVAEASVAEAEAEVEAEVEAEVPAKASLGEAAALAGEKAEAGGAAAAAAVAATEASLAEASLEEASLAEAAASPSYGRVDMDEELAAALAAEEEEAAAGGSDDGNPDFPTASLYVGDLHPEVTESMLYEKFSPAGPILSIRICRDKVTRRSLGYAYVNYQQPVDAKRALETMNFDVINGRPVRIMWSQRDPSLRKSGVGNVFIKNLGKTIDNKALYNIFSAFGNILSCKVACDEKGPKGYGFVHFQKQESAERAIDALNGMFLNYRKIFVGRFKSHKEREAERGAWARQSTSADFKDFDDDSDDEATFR
Strand	7-mer Z-score
GAAUCCG	-0.235
GGCUCUU	-0.257
UCGGGGC	0.0714
ACUUUCU	-0.286
UGUACUA	-0.191
UGCAUAG	-0.209
UCUGUAG	-0.267
GGCUUGC	-0.139
CCUUUGU	-0.418
AUGAAGU	-0.166
UCCGCAA	-0.209
AAGUGCC	0.162
UCCUUGG	-0.304
CAAAGGG	0.374
CAGUUAU	-0.0826
AGGCAGU	0.1
AUGAUGC	-0.101
AAAAUGA	4.71
GUCAUUU	-0.246

Sample 5
Target: RNA binding protein fox-1 homolog 2, RRM domain, GST-SBP tag (RBFOX2, Homo sapiens, UniProt O43251-10, residues 100-194)
Technique: RNA Bind-n-Seq
Form: RNA
Medium: in vitro
Tested at: 365 nM
Notes: natural RNA segment, single round, ends assumed
Baseline: no-protein control
Reading: higher = stronger binding
Residues (chain): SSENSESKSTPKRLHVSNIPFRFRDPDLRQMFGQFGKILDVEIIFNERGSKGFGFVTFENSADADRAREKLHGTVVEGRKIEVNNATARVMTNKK
Strand	RBNS enrichment (R)
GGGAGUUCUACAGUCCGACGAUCCCUGCAAGUGAUGCUACAGCUUCCAGCCCGUUGCCCCACUCAUCUGCCGCCUUUGCUUUUGGUUGGGGGCAGAUUGGGUUGGAAUGCUUUCCAUCUCCAGGAGACUUUCAUGGAAUUCUCGGGUGCCAA	0.287
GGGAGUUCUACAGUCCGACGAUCCUUCAGGGCAGCCAAAGCCAGCCCUUUUCUCCUACUGCCCCCAGGAGAAAUAGCACUCUUCUCCCUUCCCCCAGAUGGCAGGGCUCUGGCCUCCCUACACCUCAUACCCUUGGAAUUCUCGGGUGCCAA	0.511
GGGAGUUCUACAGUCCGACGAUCGUUUUCUCCCAGACACACCACACCUACCUUGGGGGAAUGCCGUUGCCUGUUCCACCCCUUUGUUCACUUCGCGUUAACUGCUGUGGUAACUUUUUCAGGAUCUGUGUGAAUGGAAUUCUCGGGUGCCAA	2.17
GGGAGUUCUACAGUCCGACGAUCACUCCACCGUCAGCUGUAACCCUCACCCACAGCCCCUGCUGGGCCCACCACCUGUCCGUCCCUGUCCCCUUUCCUGCUGGCAGGAGCCGGCUGCCUACCAGGGGCCUUCCUGGAAUUCUCGGGUGCCAA	0.461
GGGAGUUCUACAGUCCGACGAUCUCCUCACGACUCUUCAUCAACCAAGGAGCCUCCAGACAGAGAGGAGGAAGAAGGAAUUCACUAGGUUUUAACAAUGUUUCUCCUGCUCCUUUCUUCUCCCUAUCAGAGCUUGGAAUUCUCGGGUGCCAA	0.222
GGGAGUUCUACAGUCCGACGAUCAAGCACACUGGCUCGCGGUUUCCAUCCCUCUUGCCUUGGGACACUCUUGAGGCUGGCAGCCCUCCUGCAAUGAGUUGCUCUCAGUUCCUUCUGUUUGGAUUUUGCUCAACUGGAAUUCUCGGGUGCCAA	0.515
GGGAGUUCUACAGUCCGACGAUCAUGCCUUACUUGACCUUCCUAGGAACUGUUGAUCAGCUACCUCUUUCUGUCAAGUGUUGGUAGAAUGGGCUGAAAAGACAGGUACUUGCACCGAAAGAGCUCUUCUUUUCUGGAAUUCUCGGGUGCCAA	0.169
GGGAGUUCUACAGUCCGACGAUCGUUGUGAAAGUGUCUGUGCACAUGAAUGUUUGUGUGUGUGUGAACUCUUUCUUACUGCUGGAAGUCACAGAAUUCAUAUUGCUGCCCGGGUUGGUGUGGCCACCUUUCCCUGGAAUUCUCGGGUGCCAA	1.41

Excerpt of the above (sample 2):
Change	normalised enrichment score
PKPLKKLRFDIEW [G13W]	0.232
PWPLKKLRFDIEG [K2W]	-0.0476
PKPLKKLDFDIEG [R8D]	0.0136
PYPLKKLRFDIEG [K2Y]	0.457
PKPLKKLRFDICG [E12C]	0.183
PKPIKKLRFDIEG [L4I]	0.447
PKPLKKLRFDLEG [I11L]	0.668
WKPLKKLRFDIEG [P1W]	0.296
PKPLKKLRFDIEF [G13F]	0.293
PQPLKKLRFDIEG [K2Q]	0.183
PKPLRKLRLDIEG [K5R F9L]	-0.052
